Measured values of several laboratories.
Protocols differ between the studies behind these lines. “And” joins repeats or separate records; there may be more than shown. ± marks the error that the study gave.
UniProt Q9UH17, sequence (whole entry, looked up): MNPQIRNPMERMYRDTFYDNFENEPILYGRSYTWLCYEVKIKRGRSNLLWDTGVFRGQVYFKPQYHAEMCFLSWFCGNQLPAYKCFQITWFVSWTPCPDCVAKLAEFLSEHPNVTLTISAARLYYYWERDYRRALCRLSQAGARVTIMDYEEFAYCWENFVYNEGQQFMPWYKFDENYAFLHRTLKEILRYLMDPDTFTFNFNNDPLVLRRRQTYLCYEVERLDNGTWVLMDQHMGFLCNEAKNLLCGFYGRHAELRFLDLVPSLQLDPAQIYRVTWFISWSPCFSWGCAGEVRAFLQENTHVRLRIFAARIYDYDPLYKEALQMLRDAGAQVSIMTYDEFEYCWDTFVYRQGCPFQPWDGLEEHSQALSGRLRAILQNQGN
UniProt A2AJ88, sequence (whole entry, looked up): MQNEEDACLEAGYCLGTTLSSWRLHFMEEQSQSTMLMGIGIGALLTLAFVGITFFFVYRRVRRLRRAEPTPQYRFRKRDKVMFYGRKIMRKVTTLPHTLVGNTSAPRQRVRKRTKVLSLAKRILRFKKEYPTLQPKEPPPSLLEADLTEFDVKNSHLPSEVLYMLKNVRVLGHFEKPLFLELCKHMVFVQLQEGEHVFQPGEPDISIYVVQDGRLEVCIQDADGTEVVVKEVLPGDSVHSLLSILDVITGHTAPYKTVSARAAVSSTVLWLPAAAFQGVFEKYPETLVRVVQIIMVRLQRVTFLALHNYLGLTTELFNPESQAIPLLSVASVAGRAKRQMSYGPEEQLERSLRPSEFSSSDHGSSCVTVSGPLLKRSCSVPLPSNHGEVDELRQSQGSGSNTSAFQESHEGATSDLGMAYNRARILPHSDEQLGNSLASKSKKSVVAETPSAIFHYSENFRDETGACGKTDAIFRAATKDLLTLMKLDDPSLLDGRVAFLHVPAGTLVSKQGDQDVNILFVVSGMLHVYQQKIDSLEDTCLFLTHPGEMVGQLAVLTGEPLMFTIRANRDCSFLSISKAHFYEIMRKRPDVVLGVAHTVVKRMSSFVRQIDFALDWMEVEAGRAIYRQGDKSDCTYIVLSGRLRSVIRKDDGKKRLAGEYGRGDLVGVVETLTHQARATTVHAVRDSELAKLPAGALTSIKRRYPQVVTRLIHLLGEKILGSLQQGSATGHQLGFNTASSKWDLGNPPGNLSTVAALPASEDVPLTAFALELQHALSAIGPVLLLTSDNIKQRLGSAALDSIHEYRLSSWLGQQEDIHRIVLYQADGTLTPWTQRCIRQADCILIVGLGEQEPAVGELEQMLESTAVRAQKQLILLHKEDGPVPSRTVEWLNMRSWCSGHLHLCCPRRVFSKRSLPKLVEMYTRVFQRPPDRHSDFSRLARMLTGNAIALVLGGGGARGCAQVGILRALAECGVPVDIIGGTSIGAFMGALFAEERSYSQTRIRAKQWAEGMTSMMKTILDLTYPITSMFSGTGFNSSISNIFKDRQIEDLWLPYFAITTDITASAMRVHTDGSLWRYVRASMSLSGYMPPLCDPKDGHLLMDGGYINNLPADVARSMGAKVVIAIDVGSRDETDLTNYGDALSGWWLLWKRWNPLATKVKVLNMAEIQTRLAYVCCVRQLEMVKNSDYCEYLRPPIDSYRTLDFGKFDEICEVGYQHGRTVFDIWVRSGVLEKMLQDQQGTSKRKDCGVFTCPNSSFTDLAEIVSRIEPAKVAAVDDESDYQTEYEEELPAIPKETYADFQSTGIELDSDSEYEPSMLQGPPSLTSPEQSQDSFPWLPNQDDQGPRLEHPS
UniProt P0A988, sequence (whole entry, unmodified, looked up): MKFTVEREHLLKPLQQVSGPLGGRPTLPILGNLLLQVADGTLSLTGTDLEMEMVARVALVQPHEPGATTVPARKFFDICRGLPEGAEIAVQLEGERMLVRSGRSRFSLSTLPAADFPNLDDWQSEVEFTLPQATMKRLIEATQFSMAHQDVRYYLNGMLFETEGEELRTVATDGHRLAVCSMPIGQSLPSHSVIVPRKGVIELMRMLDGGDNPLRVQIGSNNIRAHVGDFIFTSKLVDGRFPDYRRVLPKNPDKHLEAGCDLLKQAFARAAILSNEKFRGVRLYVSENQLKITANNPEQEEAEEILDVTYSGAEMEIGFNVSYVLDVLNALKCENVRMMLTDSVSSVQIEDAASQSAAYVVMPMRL
UniProt Q9BZL6, sequence (whole entry, looked up): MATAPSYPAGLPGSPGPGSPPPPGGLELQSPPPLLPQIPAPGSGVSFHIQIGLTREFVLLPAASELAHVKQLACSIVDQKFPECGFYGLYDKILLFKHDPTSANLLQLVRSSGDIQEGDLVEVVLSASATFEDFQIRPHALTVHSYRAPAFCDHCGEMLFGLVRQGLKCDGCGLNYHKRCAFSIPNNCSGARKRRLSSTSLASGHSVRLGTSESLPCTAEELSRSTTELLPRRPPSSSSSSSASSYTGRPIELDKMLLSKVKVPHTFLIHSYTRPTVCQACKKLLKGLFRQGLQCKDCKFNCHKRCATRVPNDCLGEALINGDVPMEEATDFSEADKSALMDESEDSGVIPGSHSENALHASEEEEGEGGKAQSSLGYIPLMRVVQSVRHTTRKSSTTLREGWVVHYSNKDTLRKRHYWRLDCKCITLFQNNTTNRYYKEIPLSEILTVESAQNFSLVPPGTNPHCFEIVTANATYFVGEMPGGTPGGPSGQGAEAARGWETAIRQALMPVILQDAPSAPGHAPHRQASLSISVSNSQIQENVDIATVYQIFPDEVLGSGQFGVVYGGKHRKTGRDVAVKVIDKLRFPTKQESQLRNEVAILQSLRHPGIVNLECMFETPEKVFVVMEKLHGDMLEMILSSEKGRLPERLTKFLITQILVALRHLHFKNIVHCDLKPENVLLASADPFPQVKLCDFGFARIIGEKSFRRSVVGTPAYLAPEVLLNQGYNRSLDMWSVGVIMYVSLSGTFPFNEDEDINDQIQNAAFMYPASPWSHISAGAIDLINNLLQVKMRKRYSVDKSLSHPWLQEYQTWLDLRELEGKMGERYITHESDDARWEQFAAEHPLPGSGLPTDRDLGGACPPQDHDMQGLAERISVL
UniProt P28222, sequence (whole entry, looked up): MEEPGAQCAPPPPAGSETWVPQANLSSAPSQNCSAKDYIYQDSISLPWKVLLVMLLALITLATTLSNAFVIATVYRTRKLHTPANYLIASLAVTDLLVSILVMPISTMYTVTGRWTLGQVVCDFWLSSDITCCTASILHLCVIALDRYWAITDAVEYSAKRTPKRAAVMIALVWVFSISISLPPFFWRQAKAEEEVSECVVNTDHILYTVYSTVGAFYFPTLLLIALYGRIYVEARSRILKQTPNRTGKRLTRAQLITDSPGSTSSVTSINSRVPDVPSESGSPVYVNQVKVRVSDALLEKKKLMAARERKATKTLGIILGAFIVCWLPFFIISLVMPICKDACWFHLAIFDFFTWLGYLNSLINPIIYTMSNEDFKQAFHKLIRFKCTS
UniProt Q8R4U2, sequence (whole entry, looked up): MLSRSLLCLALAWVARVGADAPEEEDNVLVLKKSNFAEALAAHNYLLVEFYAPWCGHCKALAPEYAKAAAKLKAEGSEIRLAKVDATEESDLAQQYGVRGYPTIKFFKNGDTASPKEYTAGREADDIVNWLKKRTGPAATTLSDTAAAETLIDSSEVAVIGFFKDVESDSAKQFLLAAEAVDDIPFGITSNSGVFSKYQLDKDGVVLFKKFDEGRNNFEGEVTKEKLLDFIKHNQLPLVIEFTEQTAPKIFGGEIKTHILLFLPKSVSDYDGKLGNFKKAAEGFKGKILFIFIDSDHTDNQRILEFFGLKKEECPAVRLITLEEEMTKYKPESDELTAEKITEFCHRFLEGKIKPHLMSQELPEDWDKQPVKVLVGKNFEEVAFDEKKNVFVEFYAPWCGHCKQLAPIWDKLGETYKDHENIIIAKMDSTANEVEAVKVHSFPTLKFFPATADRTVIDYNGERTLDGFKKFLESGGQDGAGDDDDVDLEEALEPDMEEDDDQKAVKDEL
UniProt P0AC13, sequence (whole entry, looked up): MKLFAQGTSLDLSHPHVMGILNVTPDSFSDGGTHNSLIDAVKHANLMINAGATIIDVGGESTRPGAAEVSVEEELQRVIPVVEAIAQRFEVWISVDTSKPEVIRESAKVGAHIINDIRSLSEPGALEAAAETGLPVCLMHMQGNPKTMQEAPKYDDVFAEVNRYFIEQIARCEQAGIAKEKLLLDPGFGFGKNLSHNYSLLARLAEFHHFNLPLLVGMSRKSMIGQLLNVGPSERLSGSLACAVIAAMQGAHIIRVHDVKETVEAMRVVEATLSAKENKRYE
UniProt P41145, sequence (whole entry, looked up): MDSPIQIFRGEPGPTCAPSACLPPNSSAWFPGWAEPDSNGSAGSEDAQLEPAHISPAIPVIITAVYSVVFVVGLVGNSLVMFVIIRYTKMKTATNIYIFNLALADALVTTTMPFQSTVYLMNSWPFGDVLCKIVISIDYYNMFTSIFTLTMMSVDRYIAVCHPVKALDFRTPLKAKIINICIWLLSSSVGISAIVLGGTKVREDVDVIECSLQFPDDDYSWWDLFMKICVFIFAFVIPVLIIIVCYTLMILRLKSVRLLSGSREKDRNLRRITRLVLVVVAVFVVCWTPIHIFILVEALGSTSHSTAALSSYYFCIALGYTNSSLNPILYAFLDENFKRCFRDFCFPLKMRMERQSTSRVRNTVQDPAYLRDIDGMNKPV
UniProt P51817, sequence (whole entry, looked up): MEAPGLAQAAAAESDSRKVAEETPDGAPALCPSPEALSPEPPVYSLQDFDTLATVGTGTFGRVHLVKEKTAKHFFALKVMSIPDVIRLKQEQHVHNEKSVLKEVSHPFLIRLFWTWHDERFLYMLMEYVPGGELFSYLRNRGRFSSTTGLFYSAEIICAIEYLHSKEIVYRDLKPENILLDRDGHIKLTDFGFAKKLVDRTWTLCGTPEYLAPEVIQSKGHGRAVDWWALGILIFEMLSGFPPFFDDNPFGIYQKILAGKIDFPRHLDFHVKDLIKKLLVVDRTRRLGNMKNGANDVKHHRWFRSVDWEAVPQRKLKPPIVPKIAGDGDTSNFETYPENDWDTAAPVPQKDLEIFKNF

CC(C)CC(O)(CC(C)C)c1cn(C(=O)N2CCCC2)nn1 — activity ratio-of-ratios (Patatin-like phospholipase domain-containing protein 7 (Pnpla7, Mus musculus, UniProt A2AJ88); probe labelling, inhibitor, measured: Pnpla7; mouse, brain; i.p., 0.8 mg/kg, 4 h, single peptide; reference: treated over vehicle mice, lower = stronger inhibition): 1.9 and 1.78
O=C(Cc1ccc(F)c(Cl)c1)N1CCN[C@@H]2COC[C@H](N3CCCC3)[C@H]21 (relative stereo) — Emax (OPRK1 (Homo sapiens, UniProt P41145); agonist; 0.3333 h): 93 ± 23.8%
C#CCNC(=O)CN(Cc1ccc(-c2ccc(F)c(CN3CCS(=O)(=O)CC3)n2)cc1)C(=O)c1ccc(C2(C(F)(F)F)N=N2)cc1 — photoaffinity enrichment (Protein disulfide-isomerase (P4HB, Cricetulus griseus, UniProt Q8R4U2); chemical proteomics; CHO cells overexpressing CB2; 10 µM, unit not given; reference: untreated): 13 ± 1
C[C@@H](CNCc1cc(Cl)cc(Cl)c1)CNc1nc2nc(F)ccc2[nH]1 — selectivity ratio (MARS2 (Homo sapiens, UniProt Q96GW9); enzyme activity; reference: human IC50 over T. brucei IC50): > 2
CC#CC(=O)NC[C@H](NC(=O)[C@H](CC1CCCCC1)NC(=O)[C@H](CCC(N)=O)NC(C)=O)C(=O)N[C@@H](CC(C)C)C(=O)N[C@@H](Cc1ccccc1)C(=O)O — ΔH (Beta sliding clamp (Escherichia coli, UniProt P0A988, H175G); binding, isothermal titration calorimetry; 25 °C, H175G mutant peptide): -9.98 kcal/mol
CC(C)[C@H]1NC(=O)C[C@H]2/C=C/CCSSC[C@@H](NC1=O)C(=O)N[C@H](Cc1cccc3ccccc13)C(=O)NCC(=O)O2 — inhibition (PRKX (Homo sapiens, UniProt P51817); enzyme activity, inhibitor; 10 µM): 8.2%
O=C(NC1CCN(c2ncnc3[nH]cnc23)CC1)c1cccc(NS(=O)(=O)c2ccc(C(F)(F)F)cc2)c1 — inhibition (Genome polyprotein, NS5 methyltransferase domain (Zika virus, UniProt Q32ZE1); NS5 enzyme activity, inhibitor; 0.7812 µM): 1.47%
O=C1NC(=O)c2c1c1cc(F)c[n+]3c1c1c2c2cc(O)ccc2[n]1[Ru-4]312([N]=C=S)[S+]3CC[S+]1CC[S+]2CC3 (stereo not shown) — remaining activity (PRKD2 (Homo sapiens, UniProt Q9BZL6); enzyme activity; 100 nM, human enzyme, with: 10 µM ATP; reference: untreated): 81%
C=CC(=O)Nc1cc(-c2ccc(C(=O)N3CCCC(O)(CC)C3)cc2)ccc1F (stereo not shown) — unmodified protein (DNA dC->dU-editing enzyme APOBEC-3B, C-terminal domain (Homo sapiens, UniProt Q9UH17); covalent adduct, intact protein MS; 125 µM, 1 h, 5-fold molar excess): 89% and 86%
Cn1nc(CCN)c(=O)c2c(=O)[nH]c(N)nc21 — melting temperature (folP (Bacteria, UniProt P0AC13); CETSA HiBiT; whole cells): 61.7 °C
Cc1cc(-c2ccc3ccccc3c2)nnc1NCCN1CCN(C)CC1 — antagonist activity (HTR1B (Homo sapiens, UniProt P28222); antagonist; concentration not given): negative
CN(C)[C@H]1C[C@@]23CC[C@@]4(O2)C(=CC[C@]2(C)[C@@H](c5ccc6ccncc6c5)CC[C@H]24)C=C3[C@@H](O)[C@@H]1O — inhibition (ILK (Homo sapiens, UniProt Q13418); ATP probe labelling, inhibitor, KiNativ profiling; 1 µM): 7.6%
CS(C)(=O)=Nc1ccc(-c2ccc(-c3nc4cc(O[C@@H]5CO[C@H]6[C@@H]5OC[C@H]6O)[nH]c4cc3F)cc2)cc1 — inhibition (TXK (Homo sapiens, UniProt P42681); enzyme activity, inhibitor; 10 µM): 44%

Some of these lines once more:
Cn1nc(CCN)c(=O)c2c(=O)[nH]c(N)nc21 — melting temperature (folP (Bacteria, UniProt P0AC13); CETSA HiBiT; whole cells): 61.7 °C
O=C1NC(=O)c2c1c1cc(F)c[n+]3c1c1c2c2cc(O)ccc2[n]1[Ru-4]312([N]=C=S)[S+]3CC[S+]1CC[S+]2CC3 (stereo not shown) — remaining activity (PRKD2 (Homo sapiens, UniProt Q9BZL6); enzyme activity; 100 nM, human enzyme, with: 10 µM ATP; reference: untreated): 81%
